# Measurements of several laboratories.
# Lines come from different studies, so protocols differ. Numbers after ± are the reported error. Where no end group is shown, it is not given here.
# SLC10A1: Hepatic sodium/bile acid cotransporter (SLC10A1, Homo sapiens, UniProt Q14973)
# Protein farnesyltransferase: Protein farnesyltransferase (Homo sapiens, UniProt P49354+P49356)
# CXCR4: C-X-C chemokine receptor type 4 (CXCR4, Homo sapiens, UniProt P61073)
# B1: side-chain stapled; chain AACVSFQNLDCG (also: sidechain bridge or staple (positions not given here))
Substance,target,assay,test system,setting,scale,quantity,value
CC(C(=O)O)c1cccc(C(=O)c2ccccc2)c1 (stereo not drawn),SLC10A1,inhibitor,HEK293 expressing NTCP,"100 µM, 5 min, together with: taurocholate 10 µM",reference: no compound,taurocholate uptake,84.6 ± 6.1%
N[C@@H](CCCC=O)C(=O)O,"Alpha-aminoadipic semialdehyde dehydrogenase, W175A (ALDH7A1, Homo sapiens, UniProt P49419)","substrate, NADH production",,"pH 8.0, 20 °C, together with: 2.5 mM NAD+",,Km,1430 ± 204 µM
C[C@H](NC(=O)[C@H](Cc1ccccc1)NC(=O)[C@@H](NC(=O)[C@H](Cc1ccccc1)NC(=O)[C@H](C)NC(=O)[C@H](CCCNC(=N)N)N(C)C(=O)[C@@H]1CCCN1C(=O)[C@H](CCCNC(=N)N)NC(=O)CNC(=O)c1ccc2c(c1)C1(OC2=O)c2ccc(O)cc2Oc2cc(O)ccc21)[C@@H](C)O)C(=O)N[C@@H](CCC(=O)O)C(=O)NCC(N)=O,"AKT1 (Homo sapiens, UniProt P31749)","substrate, CE-LIF",,"25 µM, pH 7.0, 30 °C, enzyme 6 nM, together with: ATP 1 mM",,time to half phosphorylation,30 min
CLQL,Protein farnesyltransferase,"enzyme activity, substrate, fluorimetric",peptide,"3 µM, 30 min, together with: 9 µM farnesyl diphosphate",reference: dansyl-GCVLS (set to 1.0),relative fluorescence increase,0
Cc1ncsc1-c1ccc(CNC(=O)[C@@H]2C[C@@H](O)CN2C(=O)[C@@H](NC(=O)CCCCCCCNC(=O)O[C@H]2C[C@@H](C)C=C3C=C[C@H](C)[C@H](CC[C@@H]4C[C@@H](O)CC(=O)O4)[C@H]32)C(C)(C)C)cc1,"HMGCR (Homo sapiens, UniProt P04035)",Western blot,HepG2,"1 µM, 16 h",reference: untreated control,remaining protein level,63 ± 5%
CN(Cc1ccc(CN(C)Cc2ccccc2F)cc1)Cc1ccccc1F,CXCR4,"binding, competition binding",MDA-MB-231,"semi-quantitative screen, together with: biotinylated TN14003",,lowest effective concentration,> 1000 nM
N=C(N)NCCC[C@@H]1NC(=O)CNC(=O)[C@H](CC(N)=O)NC(=O)[C@@H]2CCCN2C(=O)[C@@H](N)CSSC[C@@H](C(=O)O)NC1=O,"Aminopeptidase N (Rattus norvegicus, UniProt P15684)","enzyme activity, inhibitor, absorbance",,"50 µM, pH 7.8, with preincubation",,remaining activity,~11%
O=C(O)c1ccc(NC(c2ccc3ccccc3c2O)c2c(F)cc(Br)cc2F)cc1 (stereo not drawn),"CAAX prenyl protease 2 (Homo sapiens, UniProt Q9Y256)","enzyme activity, inhibitor",,10 µM,,remaining activity,< 40%
CVGL,Protein farnesyltransferase,"enzyme activity, substrate, fluorimetric",peptide,"3 µM, 30 min, together with: 9 µM farnesyl diphosphate",reference: dansyl-GCVLS (set to 1.0),relative fluorescence increase,0
O=C(NCc1ccc(CNS(=O)(=O)c2cccc3ccccc23)cc1)c1ccc(F)cc1,CXCR4,"binding, competitor, rhodamine fluorescence",MDA-MB-231,"semi-quantitative screen, together with: biotinylated TN14003",,lowest effective concentration,1000 nM
CC[C@H](C)[C@H](NC(=O)[C@H](C)NC(=O)[C@H](CCC(N)=O)NC(=O)[C@H](CS)NC(=O)[C@@H](NC(=O)[C@H](Cc1c[nH]cn1)NC(=O)[C@H](CC(=O)O)NC(=O)[C@H](C)NC(=O)[C@H](CC(C)C)NC(=O)[C@@H](NC(=O)[C@@H](NC(=O)[C@H](CC(C)C)NC(=O)[C@H](CCCNC(=N)N)NC(=O)[C@H](Cc1c[nH]cn1)NC(=O)[C@@H](NC(=O)[C@H](CCCNC(=N)N)NC(=O)[C@@H]1CCCN1C(=O)[C@@H](NC(=O)[C@H](CCC(N)=O)NC(=O)CN)C(C)C)[C@@H](C)O)[C@@H](C)CC)[C@@H](C)O)[C@@H](C)CC)C(=O)N[C@H](C(=O)N[C@@H](CCC(N)=O)C(=O)N[C@@H](CC(=O)O)C(=O)N[C@@H](Cc1ccccc1)C(=O)N[C@@H](C)C(=O)N[C@@H](CCCNC(=N)N)C(=O)O)[C@@H](C)O,"NR1D1 (Homo sapiens, UniProt P20393)","NCoR peptide binding, competitor, TR-FRET",,"1 h, together with: labelled NCoR 2040-2065 peptide",reference: mutant over wild-type peptide,IC50 fold change,36.8
O=C(NCc1ccc(F)cc1)C1CCN(S(=O)(=O)c2cc(Cl)cc(Cl)c2)CC1,"Na(+)/citrate cotransporter (Homo sapiens, UniProt Q86YT5)","inhibitor, item: citrate uptake",HepG2,"10 µM, 30 min, preincubated then washed",reference: control,remaining activity,< 5%
Cc1c(NC(=O)c2cccnc2)c(=O)n(-c2ccccc2)n1C,"E3 ubiquitin-protein ligase TRIM63 (TRIM63, Homo sapiens, UniProt Q969Q1)","enzyme activity, inhibitor, in vitro ubiquitination, item: dystrophin",,,,poly-ubiquitin chain formation,inhibited
Cc1ccc(Oc2ccccc2)c(O)c1,"Enoyl-[acyl-carrier-protein] reductase [NADPH] FabI (Staphylococcus aureus, UniProt Q6GI75)","enzyme activity, inhibitor, progress curve kinetics",,,,dissociation rate constant,3.46 ± 0.29 h⁻¹
OCc1ccccc1,Chilo suppressalis CSP2,"binding, competitive fluorescence displacement",,"30 µM, pH 7.4",,fluorescence intensity,94.37 ± 0.12%
CN(Cc1ccncc1)Cc1ccc(CN(C)Cc2ccncc2)cc1,CXCR4,"binding, competition binding",MDA-MB-231,"semi-quantitative screen, together with: biotinylated TN14003",,lowest effective concentration,> 1000 nM
COc1cc(-c2oc3cc(O)cc(O)c3c(=O)c2O)ccc1O,"UGT1A9 (Homo sapiens, UniProt O60656)",substrate,,"pH 7.4, 37 °C",,Vmax,12000 pmol/mg/min
Cc1ccc(C(=O)Nc2ccc3ccccc3c2)o1,"Otop1 (Mus musculus, UniProt Q80VM9, I239A)",whole-cell patch-clamp,,"concentration not given, pH 6.0",reference: wild type,effect on acid-evoked current,decreased
COc1cc2c(NC3CCN(CCCC(=O)NCCCC(=O)N[C@H](C(=O)N4C[C@H](O)C[C@H]4C(=O)NCc4ccc(-c5scnc5C)cc4)C(C)(C)C)CC3)nc(N3CCC(F)(F)CC3)nc2cc1OCCCN1CCCC1,"EHMT2 (Homo sapiens, UniProt Q96KQ7)","degrader, western blot",,"0.3 µM, 24 h",reference: DMSO,degradation,< 8%
CC(=O)N[C@@H](Cc1ccccc1)C(=O)N[C@@H](Cc1ccccc1)C(=O)N[C@@H](COP(=O)(O)O)C(=O)N1CCC[C@H]1C(=O)N[C@@H](CCCNC(=N)N)C(N)=O,"Peptidyl-prolyl cis-trans isomerase NIMA-interacting 1, PPIase domain (PIN1, Homo sapiens, UniProt Q13526)","13C CPMG relaxation dispersion, item: P4-Cα and F1-Cα",,,,minor state population,~1%
CCCCc1ncc(/C=C(\Cc2cccs2)C(=O)O)n1Cc1ccc(C(=O)O)cc1,SLC10A1,inhibitor,HEK293 expressing NTCP,"100 µM, 5 min, together with: taurocholate 10 µM",reference: no compound,taurocholate uptake,99.9 ± 0.7%
CTLL,Protein farnesyltransferase,"enzyme activity, substrate, fluorimetric",peptide,"3 µM, 30 min, together with: 9 µM farnesyl diphosphate",reference: dansyl-GCVLS (set to 1.0),relative fluorescence increase,0
Cn1cc(-c2ccncc2)c(-c2ccc(OCc3ccc4ccccc4n3)cc2)n1,"Phosphodiesterase 10A (Macaca mulatta, UniProt H9FP16)",PET,"rhesus monkey, striatum","intravenous, 50% target occupancy",,ID50,0.3 µmol/kg
B1,"DPP4 (Homo sapiens, UniProt P27487)",enzyme activity,,"200 µM, 37 °C",reference: FAPα over DPP4,selectivity ratio,10 fold
CCC/C=C/CO,Chilo suppressalis CSP2,"binding, competitive ligand, fluorescence competitive binding",,"highest concentration tested, pH 7.4, protein 2 µM, together with: 1-NPN 2 µM",reference: no ligand,remaining 1-NPN fluorescence,62.3 ± 1.75%
CC[C@H](C)[C@H](NC(=O)[C@H](CC(C)C)NC(=O)[C@H](CCCCN)NC(=O)[C@H](CCC(=O)O)NC(=O)[C@H](CCCCN)NC(=O)[C@@H](NC(=O)[C@H](CCCCN)NC(=O)[C@H](CCC(=O)O)NC(=O)[C@@H](NC(=O)[C@H](CCCNC(=N)N)NC(=O)[C@H](CCC(=O)O)NC(=O)[C@H](CCCCN)NC(=O)[C@H](CCC(=O)O)NC(=O)[C@H](CC(C)C)NC(=O)[C@H](CCCCN)NC(=O)[C@@H](NC(=O)[C@H](CC(C)C)NC(=O)[C@H](CCC(=O)O)NC(=O)[C@H](CCC(N)=O)NC(=O)[C@H](CC(C)C)NC(=O)[C@H](CCCNC(=N)N)NC(=O)[C@H](CC(=O)O)NC(=O)[C@@H](N)CC(N)=O)C(C)C)[C@@H](C)O)C(C)C)C(=O)N[C@@H](CC(=O)O)C(=O)N1CCC[C@H]1C(=O)O,"Calmodulin-1, Ca2+-bound N-lobe (CALM1, Homo sapiens, UniProt P0DP23)",ITC,isolated calmodulin N-lobe,"50 µM, pH 7.0, 27 °C, 0.5 mM N-lobe, together with: 1 mM CaCl2",,association constant K1,< 20000 M⁻¹
CC(=O)Oc1ccccc1C(=O)O,"CDK1 (Homo sapiens, UniProt P06493)","acetylation, anti-acetyl-lysine immunoblot",,12 h,,threshold concentration,0.25 mM
CLGL,Protein farnesyltransferase,"enzyme activity, substrate, fluorimetric",peptide,"3 µM, 30 min, together with: 9 µM farnesyl diphosphate",reference: dansyl-GCVLS (set to 1.0),relative fluorescence increase,0
CNc1ncnc2c1ncn2[C@H]1C[C@H](OP(=O)(O)O)[C@@H](COP(=O)(O)O)O1.N.N,"Uracil nucleotide/cysteinyl leukotriene receptor, short isoform (GPR17, Homo sapiens, UniProt Q13304, R283I)",frontal affinity chromatography-MS,mutated receptor IAM column,concentration not given,reference: wild type column,breakthrough time change,-4.1%
CC(C)C[C@H](NC(=O)[C@H](CC(C)C)NC(=O)[C@H](Cc1ccccc1)NC(=O)[C@@H](N)CO)C(=O)N[C@@H](CCCNC(=N)N)C(=O)N[C@@H](CC(N)=O)C(=O)O,"F2R (Homo sapiens, UniProt P25116)",AFM force spectroscopy,proteoliposomes,,,binding free energy,-11.2 kcal/mol
COc1ccc(/C=C/c2cccc3c2COB3O)cc1,"Albumin (ALB, Homo sapiens, UniProt P02768)","fluorescence quenching, van't Hoff",,concentration not given,,binding enthalpy,0.468 kcal/mol
CCCC/C=C\CCCCCCCCCC=O,Chilo suppressalis CSP2,"binding, competitive ligand, fluorescence competitive binding",,"highest concentration tested, pH 7.4, protein 2 µM, together with: 1-NPN 2 µM",reference: no ligand,remaining 1-NPN fluorescence,28.6 ± 0.52%
CCc1nn(CCCN2CCN(c3cccc(Cl)c3)CC2)c(=O)n1CCOc1ccccc1,SLC10A1,inhibitor,HEK293 expressing NTCP,"100 µM, 5 min, together with: taurocholate 10 µM",reference: no compound,taurocholate uptake,60.8 ± 1.9%

# Some of these lines once more:
Substance,target,assay,test system,setting,scale,quantity,value
COc1cc(-c2oc3cc(O)cc(O)c3c(=O)c2O)ccc1O,"UGT1A9 (Homo sapiens, UniProt O60656)",substrate,,"pH 7.4, 37 °C",,Vmax,12000 pmol/mg/min
B1,"DPP4 (Homo sapiens, UniProt P27487)",enzyme activity,,"200 µM, 37 °C",reference: FAPα over DPP4,selectivity ratio,10 fold
OCc1ccccc1,Chilo suppressalis CSP2,"binding, competitive fluorescence displacement",,"30 µM, pH 7.4",,fluorescence intensity,94.37 ± 0.12%
